Published values pooled from the literature.
Each line is one published result; not all experiments were run side by side. Values joined by “and” are separate records of one study, mostly repeats; a detail may differ. ± marks the error that the study gave.
UCHL1: Ubiquitin carboxyl-terminal hydrolase isozyme L1 (UCHL1, Homo sapiens, UniProt P09936)
TOP2B: DNA topoisomerase 2-beta (TOP2B, Homo sapiens, UniProt Q02880)
Voltage-dependent P/Q-type calcium channel subunit alpha-1A: Voltage-dependent P/Q-type calcium channel subunit alpha-1A (Homo sapiens, UniProt O00555)
ADRA2C: Alpha-2C adrenergic receptor (ADRA2C, Homo sapiens, UniProt P18825)
T1: RNA aptamer G41A, 5'-triphosphate, 2',3'-cyclic phosphate; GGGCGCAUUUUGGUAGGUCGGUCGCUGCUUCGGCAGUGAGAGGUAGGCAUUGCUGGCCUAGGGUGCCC
T2: G-quadruplex DNA (Homo sapiens); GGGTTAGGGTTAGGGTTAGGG

CC/C=C(\C)C=O — conversion (Uncharacterized protein PH0856 (Pyrococcus horikoshii, UniProt O58586); substrate; pH 7, 30 °C, aerobic, together with: NADH): 20%
NC1CC1(F)c1ccc(Cl)cc1 (stereo not shown) — kcat (tyramine oxidase (Arthrobacter sp.); substrate, Lineweaver-Burk plot): 0.11 s⁻¹
CCOC(=O)C1(NS(=O)(=O)c2cc(Cl)cc(Cl)c2O)CC2(CCC2)C1 — remaining activity (malate dehydrogenase; enzyme activity, inhibitor; 200 µM, pH 7.0, 1% DMSO, aggregation counter-screen): 104%
N#CC(=Cc1ccc(Cl)cc1)C(N)=O — labelling (UCHL1; covalent, intact protein LC-MS; 12.5 µM): 6.91%
COc1cc(O)c2c(c1)oc(=O)c1c3cc(O)c(O)cc3oc21 — β-Turn content (MAL12 (Saccharomyces cerevisiae S288c, UniProt P53341); circular dichroism; molar ratio 1:1): 20.1%
Cc1nc(CSc2nc(SCc3ccc(C(C)C)cc3)nc(=O)[nH]2)cs1 — decatenated DNA (TOP2B; decatenation; 31.25 µM, replicate 1): 9.12%
Nc1nc2c(ncn2[C@@H]2O[C@H](COP(=O)(O)OP(=O)(O)OP(=O)(O)O)[C@@H](O)[C@H]2O)c(=O)[nH]1 — Kd (T1, RNA aptamer G41A, 5'-triphosphate, 2',3'-cyclic phosphate; ITC): 4.43 µM
CN(C)CCC=C1c2ccccc2C=Cc2ccccc21 — inhibition (Voltage-dependent P/Q-type calcium channel subunit alpha-1A; ion current, antagonist; HEK293; 30 µM): 97%
Cc1ccc(CNC(=O)Cn2cc(CSc3nc4ccccc4[nH]3)nn2)cc1 — geometric mean inhibition (DNA topoisomerase I (calf thymus); enzyme activity, inhibitor; MDA-MB-231; 50, 100, 500 ppm, 30 min, 37 °C): 51.9%
N#CC(=Cc1ccccc1OC(F)F)C(=O)Nc1ccccc1F — labelling (UCHL1; covalent, intact protein LC-MS; 12.5 µM): 37.4%
Cc1cn(C2CCN(Cc3cccc(Oc4ccc(Cl)c(C(F)(F)F)c4)c3)CC2)c(=O)[nH]c1=O — highest concentration tested (Thymidylate kinase (DTYMK, Homo sapiens, UniProt P23919); enzyme activity, inhibitor; no inhibition observed): > 40 µM
Cc1cc(Oc2ncccc2CN2CCN(c3cccc(C)c3C)CC2)ccc1-c1c(C)c(=O)[nH]c(=O)n1C — selectivity ratio (ADRA2C; binding, radioligand binding; together with: [3H]rauwolscine; reference: Ki alpha2A over Ki alpha2C): 7
O=S(=O)(Nc1cc(-c2ncn[nH]2)ccc1F)c1cc(Cl)cc(Cl)c1O — remaining activity (malate dehydrogenase; enzyme activity, inhibitor; 40 µM, pH 7.0, 1% DMSO, aggregation counter-screen): 101%
CCS(=O)(=O)c1nc2ccc(NC(=O)Nc3cccc(C#N)c3)cc2s1 — labelling (UCHL1; covalent, intact protein LC-MS; 12.5 µM): 12.8%
O=c1nc(SCc2cc(F)cc(C(F)(F)F)c2)nc(SCc2ccc3sccc3c2)[nH]1 — decatenated DNA (TOP2B; decatenation; 31.25 µM, replicate 1): 0%
O=S(=O)(NCC[S+]([O-])c1ccccc1F)c1cc(Cl)cc(Cl)c1O (stereo not shown) — remaining activity (malate dehydrogenase; enzyme activity, inhibitor; 200 µM, pH 7.0, 1% DMSO, aggregation counter-screen): 89%
Nc1ncnc2c1ncn2[C@@H]1O[C@H](COP(=O)(O)OP(=O)(O)OP(=O)(O)O)[C@@H](O)[C@H]1O — hydrolysis rate (Acyl-coenzyme A oxidase acox-1.1 (acox-1.1, Caenorhabditis elegans, UniProt O62140); substrate, HPLC; 50 µM, together with: acyl-CoA oxidase): 0.00268 s⁻¹
CC(NC(=O)CCCc1ccc2ccc3cccc4ccc1c2c34)C(=O)NO (stereo not shown) — TΔS (HDAC8 (Homo sapiens, UniProt Q9BY41); ITC; triethanolamine buffer; pH 7.5): 6 kcal/mol
Cc1cc(-c2ccnc3[nH]cc(F)c23)cc(F)c1[C@@]1(O)[C@H](C)CN(C2CCS(=O)(=O)CC2)C[C@@H]1C — inhibition (STK38L (Homo sapiens, UniProt Q9Y2H1); ATP probe binding, KiNativ, refers to: Lys2 site; HEK293T cell lysate; 1 µM): 10.6%
C=CC(=O)N1CCC[C@@H](n2nc(-c3ccc(Oc4ccccc4)cc3)c3c(N)ncnc32)C1 — remaining activity (TNK2 (Homo sapiens, UniProt Q07912); 1 µM): 86.9%
CC(=O)Nc1ccc(C(=O)C(C)Cl)cc1 (stereo not shown) — labelling (UCHL1; covalent, intact protein LC-MS; 12.5 µM): 16.7%
CC[C@@H]1[C@H](F)C(=O)N[C@@H]1COc1nccc2cc(C(N)=O)c(OC)cc12 — inhibition (LATS2 (Homo sapiens, UniProt Q9NRM7); ATP-site probe binding, ActivX profiling; THP-1 cell lysate; 0.01 mM, Lys2 site): -10.4%
C#CC(=O)N1CCC(N2CCN(Cc3cccc(C)c3)C2=O)C1 (stereo not shown) — labelling (UCHL1; covalent, intact protein LC-MS; 12.5 µM): 20.7%
O=C(NCCNC(=O)c1n[nH]c(=O)c2ccccc12)c1cccc(CN2C(=O)CNC2=O)c1 — ligand efficiency (TNKS (Homo sapiens, UniProt O95271); enzyme activity, inhibitor): 0.42
Oc1ccccc1-c1n[nH]cc1-c1ccnc2ccccc12 — log2 fold change (Extracellular signal-regulated kinase 1 (CEK1, Candida albicans, UniProt Q5A1D3); kinase binding, MIB/MS competition; Candida albicans lysate; 10 µM; reference: DMSO, negative = stronger binding): 0.42
Nc1ncnc2c1ncn2[C@@H]1O[C@H](COP(=O)(O)OP(=O)(O)OP(=O)(O)O)[C@@H](O)[C@H]1O — decay time (P2X purinoceptor 1 (P2RX1, Homo sapiens, UniProt P51575, R139M); ion current, two-electrode voltage clamp; Xenopus oocytes; concentration not given, 100% to 50% current decay): 771 ms
CC(C)=CCC/C(C)=C/C=C/C(C)=C/C=C/C(C)=C/C=C/C=C(C)/C=C/C=C(C)/C=C/C=C(\C)CCC=C(C)C — binding stoichiometry (Beta-lactoglobulin (LGB, Bos taurus, UniProt P02754); isothermal titration calorimetry; concentration not given): 1
CN1CCN(c2cc(-c3ccncc3)c(-c3ccc4ccccc4c3)nn2)CC1 — activation (F2RL3 (Homo sapiens, UniProt Q96RI0); agonist, FLIPR; 12.5 µM): -7.8%
N#CC(=Cc1cccc(O)c1)C(=O)Nc1ccc(N2CCOCC2)cc1 — labelling (UCHL1; covalent, intact protein LC-MS; 12.5 µM): 22.3%
Cc1cnn(C(=O)N2CCN(Cc3ccc(OCc4ccccc4)cc3)CC2)c1 — time to maximal inhibition (Faah (Rattus norvegicus, UniProt P97612); inhibitor; 5 nM, pH 9, 25 °C): ~3 h
CN(C)CCCNc1nc(-c2cccc(-c3nc(NCCCN(C)C)c4ccccc4n3)n2)nc2ccccc12 — ΔTm (T2, G-quadruplex DNA (Homo sapiens); FRET melting; 1 µM, pH 7.2, KCl 10 mM): > 15 °C
COc1cc(Nc2ncc3c(n2)-c2ccc(Cl)cc2C(c2c(F)cccc2OC)=NC3)ccc1C(=O)O — remaining activity (MRCK alpha (CDC42BPA); inhibitor, biochemical kinase; 1 µM): 100%
CN(C)CCCCCN(C)Cc1cc2ccccc2o1 — inhibition (Trypanosoma cruzi; reporter translation, Renilla luciferase mRNA translation; cell-free extract; 40 µM; reference: DMSO): 8.1%
Cc1cc(Oc2ncccc2CN2CCN(c3ccccc3C#N)CC2)ccc1-c1c(C)c(=O)[nH]c(=O)n1C — selectivity ratio (ADRA2C; binding, radioligand binding; together with: [3H]rauwolscine; reference: Ki alpha2B over Ki alpha2C): 4
CCCCCCCCC(=O)c1cc(O)c(O)c(O)c1 — activation (Vitamin D3 receptor (VDR, Homo sapiens, UniProt P11473); reporter gene, Gal4 hybrid reporter; 10 µM; reference: vehicle): 3.41 fold
Cn1cc(-c2ccc(-c3cncc(Cl)c3N3CCC4(CCNC4=O)CC3)cc2)cn1 — log2 fold change (COLO 205; gene expression, microarray, refers to: TNRC18 mRNA; concentration not given, 6 h; reference: untreated cells): 1.4
CC(C)(C)c1ccc(C=C(C#N)C(=O)Nc2ccc(C(=O)O)cc2)cc1 — labelling (UCHL1; covalent, intact protein LC-MS; 12.5 µM): 22.7%
O=c1nc(SCc2cc(F)cc(C(F)(F)F)c2)nc(SCc2ccc3nc(Cl)ccc3c2)[nH]1 — decatenated DNA (TOP2B; decatenation; 31.25 µM, replicate 1): 0.61%
Cl.O=C(CCl)NCc1ccccc1CN1CCOCC1 — labelling (UCHL1; covalent, intact protein LC-MS; 12.5 µM): 17.4%
CCCCC[C@H](O)/C=C/[C@H]1CCC(=O)[C@@H]1C/C=C\CCCC(=O)O — span (PTGER1 (Homo sapiens, UniProt P34995, H88A); IP1 accumulation, agonist; AD293; mutant H88A; reference: wild type): 89.5 ± 3.47%
Cc1c(C(=O)Nc2ccccc2C(=O)O)oc2c1C(O)CC(C)(C)C2 (stereo not shown) — luminescence (B4GALT1 (Homo sapiens, UniProt P15291); enzyme activity, inhibitor, UDP-Glo; 10 µM; lower means stronger inhibition): 63000 a.u.
C=CC(=O)N1CCC(COCC(=O)N2CCN(c3nc(-c4cnc(N)nc4C(F)F)nc(N4CCOC[C@@H]4C)n3)CC2)CC1 — remaining binding (PIK3C3 (Homo sapiens, UniProt Q8NEB9); KINOMEscan; 1 µM): 29%
Nc1ncnc2c1ncn2[C@@H]1O[C@H](COP(=O)(O)OP(=O)(O)O)[C@@H](O)[C@H]1O — -TΔS (GUK1 (Homo sapiens, UniProt Q16774, S18A); binding, ITC; together with: GMP): 0.14 kcal/mol
O=C(O)c1ccc(O)cc1 — current density (BEST1 (Homo sapiens, UniProt O76090); whole-cell patch clamp; HEK293 transiently expressing channel; concentration not given, membrane potential 40 mV): 18.3 pA/pF and 15.6 pA/pF and 13 pA/pF and 21.3 pA/pF and 13.1 pA/pF and 28.5 pA/pF and 10.3 pA/pF
Cc1cc(Oc2ncccc2CN2CCN(c3c(C)cccc3C)CC2)ccc1-c1c(C)c(=O)[nH]c(=O)n1C — selectivity ratio (ADRA2C; binding, radioligand binding; together with: [3H]rauwolscine; reference: Ki alpha2A over Ki alpha2C): 4
CN(C)CCOC1=Cc2ccccc2Sc2ccc(Cl)cc21 — inhibition (Voltage-dependent P/Q-type calcium channel subunit alpha-1A; ion current, antagonist; HEK293; 3 µM): 35%
Nc1ncnc2c1ncn2[C@@H]1O[C@H](COP(=O)(O)CP(=O)(O)OP(=O)(O)O)[C@@H](O)[C@H]1O — specific binding (P2X purinoceptor 1 (P2RX1, Homo sapiens, UniProt P51575, F188L); saturation binding; HEK293; 25 nM): 3140 CCPM and 2490 CCPM
O=C(O)C(O)C(O)C(=O)O.c1cnc2cc3c(cc2n1)[C@@H]1CNC[C@H]3C1 — inhibition (Voltage-dependent P/Q-type calcium channel subunit alpha-1A; ion current, antagonist; 30 µM): 9%
O=S(=O)(O)O — reaction velocity (GUK1 (Homo sapiens, UniProt Q16774); enzyme activity, NADH-coupled; 5 mM, together with: ATP 4000 µM): 0.133 µM/s and 0.146 µM/s and 0.123 µM/s
COc1ccc(-c2csc(CNS(=O)(=O)c3cnn(C)c3C(=O)O)n2)cc1 — remaining activity (malate dehydrogenase; enzyme activity, inhibitor; 200 µM, pH 7.0, 1% DMSO, aggregation counter-screen): 85%
N[C@@H](CCC(=O)O)C(=O)O — mean current (glc-2 (Caenorhabditis elegans, UniProt Q17328, T283S); two-electrode voltage clamp; Xenopus laevis oocytes): 1.1 µA
COc1ccc2c(c1)c(CC(=O)O)c(C)n2C(=O)c1ccc(Cl)cc1 — IC30 (Voltage-dependent P/Q-type calcium channel subunit alpha-1A; ion current, antagonist, automated patch clamp): > 30 µM
NCCCC(=O)O — normalised MST signal (SLC6A6 (Homo sapiens, UniProt P31641, L306A); binding, microscale thermophoresis; 977 nM, room temperature, together with: 50 nM labelled protein; higher = more binding): 0.128
CNCC[C@@H](Oc1ccccc1C)c1ccccc1 — inhibition (Voltage-dependent P/Q-type calcium channel subunit alpha-1A; ion current, antagonist; HEK293; 10 µM): 52%
O=C(NC1CCC1)c1ccc2nc(-c3cccc(NS(=O)(=O)NCCN4CCCCC4)c3)cn2c1 — remaining activity (NEK10 (Homo sapiens, UniProt Q6ZWH5); enzyme activity; 10 µM): 94%

Some of these lines once more:
N#CC(=Cc1cccc(O)c1)C(=O)Nc1ccc(N2CCOCC2)cc1 — labelling (UCHL1; covalent, intact protein LC-MS; 12.5 µM): 22.3%
Cc1cnn(C(=O)N2CCN(Cc3ccc(OCc4ccccc4)cc3)CC2)c1 — time to maximal inhibition (Faah (Rattus norvegicus, UniProt P97612); inhibitor; 5 nM, pH 9, 25 °C): ~3 h
CN(C)CCCNc1nc(-c2cccc(-c3nc(NCCCN(C)C)c4ccccc4n3)n2)nc2ccccc12 — ΔTm (T2, G-quadruplex DNA (Homo sapiens); FRET melting; 1 µM, pH 7.2, KCl 10 mM): > 15 °C
COc1cc(Nc2ncc3c(n2)-c2ccc(Cl)cc2C(c2c(F)cccc2OC)=NC3)ccc1C(=O)O — remaining activity (MRCK alpha (CDC42BPA); inhibitor, biochemical kinase; 1 µM): 100%
CN(C)CCCCCN(C)Cc1cc2ccccc2o1 — inhibition (Trypanosoma cruzi; reporter translation, Renilla luciferase mRNA translation; cell-free extract; 40 µM; reference: DMSO): 8.1%
Cc1cc(Oc2ncccc2CN2CCN(c3ccccc3C#N)CC2)ccc1-c1c(C)c(=O)[nH]c(=O)n1C — selectivity ratio (ADRA2C; binding, radioligand binding; together with: [3H]rauwolscine; reference: Ki alpha2B over Ki alpha2C): 4
CCCCCCCCC(=O)c1cc(O)c(O)c(O)c1 — activation (Vitamin D3 receptor (VDR, Homo sapiens, UniProt P11473); reporter gene, Gal4 hybrid reporter; 10 µM; reference: vehicle): 3.41 fold
